Assay results collected from several papers.
Parts stem from different laboratories: compare values within a part only. Changes are numbered by the printed parent chain.

Block 1
Target: CCNA2, cyclin fold, Cln2 fusion (human)
Method: yeast growth competition, sequencing
Medium: yeast
Notes: strong parent motif
Baseline: not given
Direction: higher = stronger binding
Endpoint: normalised enrichment score
Starting sequence: E2F1 docking peptide (human); PPVKRRLDLETDH; partner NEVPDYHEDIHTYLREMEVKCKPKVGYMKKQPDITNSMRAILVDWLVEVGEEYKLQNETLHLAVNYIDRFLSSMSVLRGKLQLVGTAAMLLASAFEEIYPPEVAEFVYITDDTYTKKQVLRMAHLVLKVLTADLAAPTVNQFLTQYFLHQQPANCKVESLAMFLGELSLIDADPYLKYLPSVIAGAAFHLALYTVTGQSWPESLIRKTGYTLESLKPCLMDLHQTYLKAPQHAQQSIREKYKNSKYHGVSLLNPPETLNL
Substitution = D8A; result = 4.06
Substitution = D12V; result = 4.87
Substitution = P2T; result = 3.94
Substitution = E10D; result = 5.45
Substitution = E10V; result = 3.65
Substitution = K4I; result = 1.14
Substitution = H13W; result = 4.24
Substitution = K4F; result = 1.14
Substitution = P1H; result = 4.95
Substitution = R5F; result = 0.752
Substitution = D12K; result = 4.38
Substitution = K4P; result = 0.312
Substitution = T11H; result = 3.57
Substitution = P1G; result = 3.86
Substitution = L7A; result = -0.163
Substitution = E10K; result = 2.7
Substitution = P1A; result = 4.55
Substitution = P2M; result = 2.47
Substitution = P1N; result = 4.37
Substitution = V3A; result = 5.32
Substitution = P1T; result = 3.58
Substitution = R6Q; result = 2.67

Block 2
Target: UBE2I UBC core domain (UniProt P63279)
Method: yeast two-hybrid
Medium: yeast
Notes: mostly zero background
Baseline: not given
Direction: higher = stronger interaction
Endpoint: lacZ reporter activity
B1: TRIM60 RING domain (UniProt Q495X7); chain ALVNLQEESSCPICLEYLKDPVTINCGHNFCRSCLSVSWKDLDDTFPCPVCRFCFPYKSFRR
B2: RNF152 RING domain (UniProt Q8N8N0); chain ETLSQDSLLECQICFNYYSPRRRPKLLDCKHTCCSVCLQQMRTSQKDVRCPWCRGVTKLPPGFS
B3: RNF183 RING domain (UniProt Q96D59); chain EQQGRELEAECPVCWNPFNNTFHTPKMLDCCHSFCVECLAHLSLVTPARRRLLCPLCRQPTVLASGQP
B4: RNF122 RING domain (UniProt Q9H9V4); chain AKKLQLYGQTCAVCLEDFKGKDELGVLPCQHAFHRKCLVKWLEVRCVCPMCNKPIASPSEAT
B5: RNF187 RING domain (UniProt Q5TA31); chain ALPAGPAEAACALCQRAPREPVRADCGHRFCRACVVRFWAEEDGPFPCPECADDCWQRAVEP
B6: TRIM26 RING domain (UniProt Q12899); chain PLRSLEEEVTCSICLDYLRDPVTIDCGHVFCRSCTTDVRPISGSRPVCPLCKKPFKKENIRP
B7: DEF8 RING domain (UniProt Q6ZN54); chain AGRLGCSLTEIHTLFAKHIKLDCERCQAKGFVCELCREGDVLFPFDSHTSVCADCSAVFHRDCYYDNSTTCPKCARLSLRK
Molecule = YPEEVDDDLICHICLQALLDPLDTPCGHTYCTLCLTNFLVEKDFCPMDRKPLVLQHCKK (LNX1 RING domain (UniProt Q8TBB1)); result = 0
Molecule = LDAASGHPLVCPLCHGQYERPCLLDCFHDFCTGCLRGRATDGRLSCPLCQHQTLVKGPSG (Rnf207 RING domain (UniProt Q3V3A7)); result = 0
Molecule = B1 (TRIM60 RING domain); result = 0
Molecule = PEELAVNNDDCAICWDSMQAARKLPCGHLFHNSCLRSWLEQDTSCPTCRMSLNIADNNR (AMFR RING domain (UniProt Q9UKV5)); result = 0
Molecule = B2 (RNF152 RING domain); result = 0
Molecule = B3 (RNF183 RING domain); result = 0
Molecule = B4 (RNF122 RING domain); result = 0
Molecule = B5 (RNF187 RING domain); result = 0
Molecule = QVQSRTKIEECVVCSDKKAAVLFQPCGHMCACENCANLMKKCVQCRAVVERRVPFI (MIB1 RING domain (UniProt Q86YT6)); result = 0
Molecule = B6 (TRIM26 RING domain); result = 0
Molecule = RYRQMEERITCPICIDSHIRLVFQCGHGACAPCGSALSACPICRQPIRDRIQIF (MIB2 RING domain (UniProt Q96AX9)); result = 0
Molecule = KPDKMEETLTCIICQDLLHDCVSLQPCMHTFCAACYSGWMERSSLCPTCRCPVERICKNH (CHFR RING domain (UniProt Q96EP1)); result = 0
Molecule = B7 (DEF8 RING domain); result = 0

Block 3
Target: ABI1, truncated, D143A, DHFR fusion (Arabidopsis thaliana)
Method: DHFR PCA, deep sequencing
Medium: yeast
Notes: methotrexate growth selection, single substitutions
With: (+)-ABA 0.39 µM
Baseline: wild-type fitted maximum
Direction: higher = stronger binding
Endpoint: relative binding score
Starting sequence: PYL1, truncated, DHFR fusion (Arabidopsis thaliana); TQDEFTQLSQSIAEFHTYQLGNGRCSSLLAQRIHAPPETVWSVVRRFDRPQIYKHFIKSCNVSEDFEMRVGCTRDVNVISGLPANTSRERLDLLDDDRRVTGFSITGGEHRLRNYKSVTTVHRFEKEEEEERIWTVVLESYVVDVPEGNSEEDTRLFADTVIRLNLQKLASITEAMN
Substitution = S104G; result = -1.62%
Substitution = E64M; result = 5.8%
Substitution = I33T; result = -3.1%
Substitution = G108M; result = -6.35%
Substitution = E109P; result = -0.926%
Substitution = L166Y; result = -6.2%
Substitution = L20R; result = 47%
Substitution = E127Q; result = 58%
Substitution = T173R; result = -14.8%
Substitution = I162A; result = 6.88%
Substitution = E129M; result = 32.2%
Substitution = S104E; result = -15.1%
Substitution = T101M; result = 75.2%
Substitution = M176Y; result = -8.74%
Substitution = T17I; result = -2.73%
Substitution = T6A; result = 54.8%
Substitution = R24W; result = -5.24%
Substitution = L94K; result = -12.9%

Block 4
Target: RNA binding protein fox-1 homolog 2, RRM domain, GST-SBP tag (RBFOX2, Homo sapiens, UniProt O43251-10, residues 100-194)
Method: RNA Bind-n-Seq
Form: RNA
Medium: in vitro
Concentration: 365 nM
Notes: natural RNA segment, single round, ends assumed
Baseline: no-protein control
Direction: higher = stronger binding
Endpoint: RBNS enrichment (R)
Residues (chain): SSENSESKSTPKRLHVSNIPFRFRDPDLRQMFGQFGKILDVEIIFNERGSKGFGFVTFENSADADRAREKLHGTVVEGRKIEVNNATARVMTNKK
Strand = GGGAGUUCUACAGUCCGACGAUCACAAAAUCUCCAUUUCCUUGUGCCUGGCACUGUCUCGAGCCUAAGCUAUUUUAAAGAUGUUUUAAACAGUGGAAGAAUUAAGUCCACCAAAAGUCUUCCAUGAAAUGUAGUGGAAUUCUCGGGUGCCAA; result = 0.532
Strand = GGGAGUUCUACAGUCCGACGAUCUCUGACCCGAGGAAGCACCCUCCUGACGCCGCCUUCCUCCGGUUAUUGAAAGGACGCCUCAGAAAUGCUUUGUUUUCUUUUACGAUGUAUUCAGAAGCCUUUACUGAUUAUGGAAUUCUCGGGUGCCAA; result = 0.438
Strand = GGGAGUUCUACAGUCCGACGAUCACCACACAUCACUGCCUGAACUCCUUUGGCAGAAGAACCCCACCAGACAUUGAGACAUUGUAUUUUGCCUUAGCAGGGAUGAGUUGGUCUCUCCUGGCUGGGCCAUCCCAUGGAAUUCUCGGGUGCCAA; result = 0.673
Strand = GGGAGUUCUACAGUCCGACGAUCACUGUCAUGUUCUUUACAUGUCACUUGUCAUUUUUAUUUGUGAAAAAUAAAAAGAUAAUUUAUUCACUUUUAUUGACCUGUUAUUAAGAAGACCAUUACUAAAUGGAGCUUGGAAUUCUCGGGUGCCAA; result = 0.393
Strand = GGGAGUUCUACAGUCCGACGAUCGGCAAGAACACCUCGGAGCCACUGCAUUGUUUUGCCAAAAACUUACUGCAGAUUAAGUAAAGAACUUAGAUGCUAAAUUACAUCUAAUUUUGUAUGUUUUUUUAAAUGUGUGGAAUUCUCGGGUGCCAA; result = 0.469
Strand = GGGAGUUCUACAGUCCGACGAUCCUAUUUGGAACAGUUCUUACACAUUUGCUGGGCCUGGCCUCUGAGAGGCCAUCUUCCACCCCCAGAAAGGUGCUAAUGGCACUGCAGAGGGCUCUCUAGGGGCCUCCCCGUGGAAUUCUCGGGUGCCAA; result = 0.21
Strand = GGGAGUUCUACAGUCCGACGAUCUGGCAGCUUAACAUUGACUUCUUGGUUUGGGGAGAAAUAAAUUUUGUUUCAGAAUUUUGUAUAUUGUAGGAAUCCUUUGAGAAUGUGAUUCCUUUUGAUGGGGAGAAAGGUGGAAUUCUCGGGUGCCAA; result = 2.23
Strand = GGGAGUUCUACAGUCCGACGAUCGAGCAUCAGCAACGCCACAGACCCUGAACCCAGACCUUCCCCACCUCACCUCCUUCCCAUCCCGCCGAGCGUCCCAGACACUAACUCUUCCCAGAUGAUGACAAUGAAAUUGGAAUUCUCGGGUGCCAA; result = 0.736
Strand = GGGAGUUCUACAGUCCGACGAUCCCGCUAUUUGCAAAUGGAUGCCCCAGUGUCCGGGAUGUGUGGCCAGCUGCUGCAGGCAGGACUCCAGCGUCAGGAUGUUGCCACUUGGAGUAUGAACAAUGGGCACGGGGUGGAAUUCUCGGGUGCCAA; result = 1.41
Strand = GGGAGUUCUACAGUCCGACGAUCCUCUGUCCCCACUGCAGGUGCUGCUUCUCCUCAGGUGUGGCCUACCUAGGCUCCUGGACCCACACCCUCCUCAGGCUGACUUUACUGCCUUGGGAGAAGUCUACAUUUCCUGGAAUUCUCGGGUGCCAA; result = 0.319
Strand = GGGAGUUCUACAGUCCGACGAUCGAAGAGUUUUGAUUCUGUCCUUUUUUACUUGACAGUUUUACUAUGACACUAGACUCAGUAGAUUUUUAGGGAAAAAUAUGAUUAAUAGUAUCAUGGUGAACCAUUUAUUUUGGAAUUCUCGGGUGCCAA; result = 0.581
Strand = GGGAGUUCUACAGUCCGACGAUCACGUGACUCAGCAGUGCCCGCCGCCGUCACCAGCUAUGCAUUCACUCCGUUUCCAGUGAGCAGAUGUCUUGCUUGGAAAGUGGACCUGUGUCUGUGUCUGUCCUGAGAACUGGAAUUCUCGGGUGCCAA; result = 0.213

Block 5
Target: CREB3L2, bZIP domain (human)
Method: DHFR protein complementation
Medium: yeast
Notes: single substitutions, most at no-binding floor
Baseline: wild-type JUN-FOS pair
Direction: higher = stronger binding
Endpoint: binding fitness
Starting sequence: JUN, bZIP domain (human); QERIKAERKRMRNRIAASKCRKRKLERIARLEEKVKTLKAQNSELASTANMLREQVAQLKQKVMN; partner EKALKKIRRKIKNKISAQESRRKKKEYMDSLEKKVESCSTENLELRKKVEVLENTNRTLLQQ
Substitution = E54R; result = -1.51 natural log
Substitution = E32N; result = -1.39 natural log
Substitution = A57R; result = -1.52 natural log
Substitution = Q55W; result = -1.57 natural log
Substitution = L52H; result = -1.39 natural log
Substitution = V35P; result = -1.5 natural log
Substitution = V35K; result = -1.51 natural log
Substitution = L45C; result = -1.47 natural log
Substitution = K39D; result = -1.43 natural log
Substitution = Q41L; result = -1.34 natural log
Substitution = L52F; result = -1.55 natural log
Substitution = K39Y; result = -1.47 natural log
Substitution = L45I; result = -1.51 natural log
Substitution = K36F; result = -1.39 natural log
Substitution = V56Y; result = -1.46 natural log
Substitution = E33T; result = -1.31 natural log
Substitution = S47D; result = -1.41 natural log
Substitution = L38E; result = -1.36 natural log
Substitution = I28G; result = -1.5 natural log
Substitution = E32L; result = -1.52 natural log
Substitution = L31I; result = -1.57 natural log

Excerpt of the above (block 2):
Molecule = YPEEVDDDLICHICLQALLDPLDTPCGHTYCTLCLTNFLVEKDFCPMDRKPLVLQHCKK (LNX1 RING domain (UniProt Q8TBB1)); result = 0
Molecule = LDAASGHPLVCPLCHGQYERPCLLDCFHDFCTGCLRGRATDGRLSCPLCQHQTLVKGPSG (Rnf207 RING domain (UniProt Q3V3A7)); result = 0
Molecule = B1 (TRIM60 RING domain); result = 0
Molecule = PEELAVNNDDCAICWDSMQAARKLPCGHLFHNSCLRSWLEQDTSCPTCRMSLNIADNNR (AMFR RING domain (UniProt Q9UKV5)); result = 0
Molecule = B2 (RNF152 RING domain); result = 0
Molecule = B3 (RNF183 RING domain); result = 0
Molecule = B4 (RNF122 RING domain); result = 0
Molecule = B5 (RNF187 RING domain); result = 0
Molecule = QVQSRTKIEECVVCSDKKAAVLFQPCGHMCACENCANLMKKCVQCRAVVERRVPFI (MIB1 RING domain (UniProt Q86YT6)); result = 0
Molecule = B6 (TRIM26 RING domain); result = 0
Molecule = RYRQMEERITCPICIDSHIRLVFQCGHGACAPCGSALSACPICRQPIRDRIQIF (MIB2 RING domain (UniProt Q96AX9)); result = 0
Molecule = KPDKMEETLTCIICQDLLHDCVSLQPCMHTFCAACYSGWMERSSLCPTCRCPVERICKNH (CHFR RING domain (UniProt Q96EP1)); result = 0
Molecule = B7 (DEF8 RING domain); result = 0
